Measurements collected from several papers.
Protocols differ between the studies behind these lines. Several values in a cell are separate wells, animals, samples, runs or records. ± gives the spread as reported.

SMILES | test | test system | setting | scale | measurement | result
OCc1cc(C(O)CNCCCCCCOCCCCc2ccccc2)ccc1O (centres unmarked) | equilibrium dialysis | rat, plasma |  |  | fraction unbound | 0.075
N#CN1C[C@H](n2nc(-c3ccc(Oc4ccc(Cl)cn4)cc3)c(C(N)=O)c2N)CCC12CC2 |  | human, fed, plasma | oral, 600 mg |  | AUC(0-24h) | 11400 ± 3070 ng·h/mL
O=C(O)CCC(=O)O.[2H]C([2H])([2H])Oc1cc(C)c2[nH]ccc2c1CN1CC[C@@H](C2CC2)C[C@H]1c1ccc(C(=O)O)cc1 |  | healthy Chinese subjects | oral, 200 mg, single ascending dose |  | subjects with elevated uric acid | 8.3%
O=C(COc1ccc(Cl)cc1)NC12CC(c3nnc([C@H]4C[C@@H](OC(F)(F)F)C4)o3)(C1)C2 | measured: catheter site pain | healthy humans, both sexes | oral, 400 mg, single ascending dose | reference: subjects | treatment-emergent adverse events | 16.7%
CC(=O)N(C)[C@H]1CCN(C(=O)c2cnc3c(c2)C[C@](C)(c2ccc(F)cc2)N3)C1 | measured: lens opacity | human | oral, 15 mg once daily |  | adverse event duration | 206 days
CCc1nc(C(N)=O)c(Nc2ccc(N3CCC(N4CCN(C)CC4)CC3)c(OC)c2)nc1NC1CCOCC1 |  | Japanese patients, plasma and urine | oral, 80 mg, cycle 1 day 28, multiple doses, median |  | renal clearance | 30.8 mL/min
Cc1nc2ccc(OCc3ccc(C(F)(F)F)cc3)cc2[nH]1 |  | Balb/c mouse, male, heart | intravenous, 1 mg/kg, 3 h | reference: tissue over plasma | tissue/plasma ratio | 3.2 ± 0.5
CCn1c(=O)c(-c2cc(NC(=O)Nc3ccccc3)c(F)cc2Br)cc2cnc(NC)cc21 | measured: accidental overdose | human, severe hepatic impairment | oral, 50 mg single dose |  | participants with grade ≥ 3 TEAE | 0%
C=CCN1CC(=O)N2[C@@H](Cc3ccc(O)cc3F)C(=O)N(Cc3cccc(N4CC(N5CCN(CC)CC5)C4)n3)C[C@@H]2N1C(=O)NCc1ccccc1 |  | advanced solid tumour patients | oral, 20 mg twice daily, any grade, dose-escalation |  | treatment-related AST increased | 0%
Cc1cc(C)c(CNC(=O)c2cc(Cl)c3c(c2C)O[C@@](C)([C@H]2CC[C@H](N(C)C)CC2)O3)c(=O)[nH]1 | LC-MS/MS | human male | oral, dose not given, added: fluconazole | reference: with fluconazole over alone | AUClast fold increase | ~1.6 fold
Cc1cc(-c2nccc3c2ccn3CC(=O)Nc2ccc(-c3cnccn3)cn2)ccn1 |  | human | SAD part, single 20 mg dose |  | subjects with Wheezing TEAEs | 0%
Cc1cnc(Nc2ccc(OCCN3CCCC3)cc2)nc1Nc1cccc(S(=O)(=O)NC(C)(C)C)c1 |  | BALB/c mice, rhEPO-induced polycythemia | 120 mg/kg, day 4 |  | body weight | 18.2 g and 17.9 g and 18.5 g and 18.8 g and 19.3 g
CCN1CCN(C(=O)c2ccc(-n3nc(-c4cccnc4)c4c3-c3sc(NC(C)=O)nc3CC4)cc2)CC1 |  | NSG mice | dose not given, day 3 |  | body weight | 15.5 g and 19.2 g and 19.3 g and 18.4 g
CNCc1ccc(-c2[nH]c3cc(F)cc4c3c2CCNC4=O)cc1 | measured: Asthenia/fatigue | human patients | oral, dose not given, all grades, all doses |  | patients with adverse event | 50%
FC(F)(F)c1ccc(CNc2ccc(Cc3c[nH]c4ncc(Cl)cc34)cn2)cn1 | measured: Arthralgia | patients with advanced solid tumours, non-TGCT cohort | oral, 1000 mg/day, grade 3 or higher |  | treatment-related adverse events | 0%
COc1cc2nccc(Oc3ccc(NC(=O)c4cc5c(n(-c6ccccc6)c4=O)CCCC5=O)nc3)c2cc1OC |  | relapsed or refractory AML | oral, 6 mg once daily |  | grade ≥3 Syncope patients | 0%
N#Cc1ccc2c(c1)[C@H]1CCCN(C(=O)c3ccc4[nH]cnc4c3)[C@H]1C2 |  | human, plasma | 240 mg once daily, day 2 |  | pre-dose plasma concentration | 2550 nmol/L
COc1ccnc(C(=O)NC(CO)C(=O)O)c1O (racemic) |  | Staffordshire loam sediment, aerobic dark | 20 °C |  | DT50 water | 4.86 days
O=C(O)c1cccc(C(=O)O)c1 |  | betaine/glycerol DES-water | DES mass fraction 0.60 |  | apparent dissolution enthalpy | 3.36 kcal/mol
N#Cc1ccc2c(c1)[C@H]1CCCN(C(=O)c3ccc4[nH]cnc4c3)[C@H]1C2 |  | human males | 40 mg, end of trial |  | SHBG level | 43.1 nmol/L
CC(C)n1c(Nc2cccnc2)nc2cnc(Nc3ccc(N4CCN(C)CC4)cc3)nc21 |  | healthy male humans | oral, dose not given, drug interaction study, all arms |  | subjects with grade 3 TEAEs | 7.1%
C[C@@H]1COCCN1c1cc(C2([S@](C)(=N)=O)CC2)nc(-c2cc[nH]c3nccc2-3)n1 |  | Japanese advanced solid tumour patients | oral, 160 mg twice daily, any grade |  | Nausea incidence | 66.7%

SMILES | test | test system | setting | scale | measurement | result
NCCONC(=O)[C@@H]1CC[C@@H]2CN1C(=O)N2OS(=O)(=O)O |  | human, male, urine | intravenous infusion, 1 g single dose | reference: dose | cumulative urinary excretion (0-24 h) | 84.9%
CCN1/C(=C/C(C)=O)Sc2ccc(F)cc21 |  | cynomolgus monkey | oral, 30 mg/kg, 2 h post-dose | reference: pre-dose | mean blood pressure change | 98.6 ± 3.5%
COc1ccnc(C(=O)N[C@H]2COC(=O)[C@H](Cc3ccccc3)[C@@H](O)[C@H](C)OC2=O)c1O | aerobic soil incubation | soil | worst-case terminal value, for exposure modelling |  | DT50 | 31.3 days
CCOc1c([C@H](C)n2nc(C)c3c(N)ncnc32)cc(Cl)c(F)c1[C@@H]1CNC(=O)C1 | measured: QTcF change above 60 ms | previously treated B-cell malignancy | oral, 5 mg once daily, overall population | reference: baseline | ECG observations | 0%
Cc1cc(NC2CCN(C(=O)OC3CCN(C(=O)/C=C/CN(C)C)C3)CC2)n2ncc(C(C)C)c2n1 (centres unmarked) | Phase I dose escalation CTCAE v4.0, measured: Hypotension | patients with advanced solid tumours | dose not given, all dose schedules any grade |  | patients with adverse event | 6%
CCc1cc(C(=O)NC)c2nccc(N3CCc4c(cc(Cn5ccnc5)cc4-c4cn(C)nc4C(F)(F)F)C3=O)c2c1 |  | Sprague Dawley rats | oral, 100 mg/kg twice daily, 7 days |  | serum UA level | 316 ± 60.9 µmol/L
Cc1cccc(CNC(=O)c2cn(CCNC(=O)c3ccccc3S)c3cc4c(cc3c2=O)OC(F)(F)O4)n1 |  | Sprague-Dawley rat, male, whole blood | intramuscular, 10 mg/kg of parent drug |  | bioavailability | 42%
CS(=O)(=O)c1ccc(-c2nc3ccccc3n2CC(=O)N/N=C/c2ccc(Cl)cc2)cc1 |  | rat, stomach | concentration not given, 4 h | reference: normal control | ulcer preventive index | 93.5%
Cc1ccc(Sc2ccccc2N2CCNCC2)c(C)c1 |  | elderly men | oral, 10 mg single |  | any adverse event | 12.5%
CCOc1c([C@H](C)n2nc(C)c3c(N)ncnc32)cc(Cl)c(F)c1[C@@H]1CNC(=O)C1 |  | rat plasma | 1600 ng/mL, 3 h, room temperature | reference: nominal concentration | stability relative error | 11.4%
O=C1CC[C@H](N2Cc3cc(N4CCN(CC5CCN(c6ccc([C@@H]7c8ccc(O)cc8CC[C@@H]7c7ccccc7)cc6)CC5)CC4)ccc3C2=O)C(=O)N1 |  | human | oral, 200 mg, added: rosuvastatin 10 mg |  | participants with muscle spasms | 8.3%
Nc1ncnc2c1ncn2[C@H]1C[C@@H]2OP(=O)(O)OC[C@H]3O[C@@H](n4cnc5c(N)ncnc54)C[C@@H]3OP(=O)(O)OC[C@H]2O1 |  | non-tumor-bearing mice, blood | intravenous, 1 mg/kg, toxicity study |  | monocyte percentage | 2.18 ± 0.94%
CC(C)(C(=O)N1CCOc2c(C#N)cncc2C1)C(F)F |  | healthy humans, both sexes, plasma | oral, 40 mg single dose, 1.33-fold dose increase | reference: 40 mg over 30 mg | AUClast dose proportionality ratio | 2.11
O=C(CCCCCCC(=O)Nc1ccc(CC[18F])cc1)NO |  | athymic nu/nu male mice, LNCaP xenograft, kidney | intravenous, 0.5 h |  | tissue uptake | 17.9 ± 8.7 %ID/g
COc1ccc(C[C@@H](C)[C@@H](C)Cc2ccc(OC)c(OC)c2)cc1OC |  | beagle dog female, plasma | oral, 100 mg/kg/day, day 1 |  | AUC(0-t) | 18000 ± 1090 ng·h/mL
O=C(N[C@H](Cc1c[nH]c2ccccc12)C(=O)Nc1ccncc1)c1ccc(-c2ccc(F)c(C(F)(F)F)c2)cc1F |  | Swiss Webster mouse, female, fat | oral, 50 mg/kg, 2 h, 20% HPβCD vehicle |  | concentration | 80 nM
COc1cc2c(cc1OC)C(=O)C(CC1CCN(Cc3ccccc3)CC1)C2 (centres unmarked) |  | human subjects | unit not given | reference: placebo | LSEQ getting to sleep | -0.02
CN1CCC[C@H](CN2c3ccccc3Sc3ccccc32)C1.Cl |  | Wistar rat female, kidney | oral, 16 mg/kg |  | AUC(0-t) | 55100 ng·h/mL
O=C(Nc1nc2cccc(-c3ccc(CN4CCS(=O)(=O)CC4)cc3)n2n1)C1CC1 | measured: renal and urinary disorders | rheumatoid arthritis patients | oral, 200 mg once daily, 4 weeks, any relatedness |  | treatment-emergent adverse events | 0%
COc1ccc2c(c1)CN(C(=O)CCN1CCC(Cc3ccccc3)CC1)CC[S@@+]2[O-] | telemetry | conscious male beagle dogs | intravenous, 2 mg/kg, 4 h |  | systolic blood pressure | 137 ± 11 mmHg
CCO |  | human | concentration not given, treatment-emergent adverse event |  | heart rate increased | 11.1%
OC[C@H]1O[C@@H](c2ccc(Cl)c(Cc3ccc(O[C@H]4CCOC4)cc3)c2)[C@H](O)[C@@H](O)[C@@H]1O |  | Japanese type 1 diabetes patients, blood | 2.5 mg, day 28 | reference: baseline | change in AST | 0 U/L

Excerpt of the above:
SMILES | test | test system | setting | scale | measurement | result
Cc1cccc(CNC(=O)c2cn(CCNC(=O)c3ccccc3S)c3cc4c(cc3c2=O)OC(F)(F)O4)n1 |  | Sprague-Dawley rat, male, whole blood | intramuscular, 10 mg/kg of parent drug |  | bioavailability | 42%
CS(=O)(=O)c1ccc(-c2nc3ccccc3n2CC(=O)N/N=C/c2ccc(Cl)cc2)cc1 |  | rat, stomach | concentration not given, 4 h | reference: normal control | ulcer preventive index | 93.5%
Cc1ccc(Sc2ccccc2N2CCNCC2)c(C)c1 |  | elderly men | oral, 10 mg single |  | any adverse event | 12.5%
CCOc1c([C@H](C)n2nc(C)c3c(N)ncnc32)cc(Cl)c(F)c1[C@@H]1CNC(=O)C1 |  | rat plasma | 1600 ng/mL, 3 h, room temperature | reference: nominal concentration | stability relative error | 11.4%
